# Measurements from different studies.
# Compare with care: the assays were run in different laboratories.
SMILES,cell line,test,setting,how to read,endpoint,result
C[C@H](CS)C(=O)N1CCC[C@H]1C(=O)O,hiPSC cardiac tissues 3D,active force,"15 min per concentration, paced at 1 Hz serum-free",,minimum effective concentration,> 100 µM
COc1ccc(C=C2SC(N3N=C(c4cccs4)CC3c3ccc(F)cc3)=NC2=O)cc1 (centres unmarked),T47D,PI flow cytometry,"concentration not given, 24 h",,cells in %Sub-G1 phase,26.8%
[Cl][Au].[Se]=c1n(C23CC4CC(CC(C4)C2)C3)ccn1C12CC3CC(CC(C3)C1)C2,A2780 ADR,MTT,,baseline: A2780 ADR over A2780,resistance factor,0.5
C#CCOCCOCCOCCOCCn1cc(C(ONC(=O)/C=C/C(C)=C/C2(C)Oc3cc(N(C)C)ccc3C2=O)(c2ccc(C)cc2)c2ccc(C)cc2)nn1 (centres unmarked),MeT-5A,"HDAC activity, inhibitor, BRET",IC50,,time to maximum BRET,24 h
COC(=O)CC[C@@H](NC(=O)[C@@H](Cc1ccc(OP(=O)(O)O)cc1)NC(=O)[C@@H](Cc1ccccc1)NC(=O)[C@@H](Cc1ccccc1)NC(=O)Cc1ccc2ccccc2c1)C(=O)OC,SAOS-2,MTT,"10 µM, added: zVAD-fmk 45 µM",,viability,25%
COc1cc(CNC(=O)C[C@H](C)CCC=C(C)C)ccc1OCc1cn(-c2ccc(C#N)cc2)nn1,KM12,SRB,"10 µM, 48 h",,growth percent,71.7%
N=C(N/N=C/c1ccccn1)N/N=C/c1ccccn1,PANC-1,crystal violet,72 h,baseline: IC50 IMR-90 over IC50 PANC-1,selectivity ratio,19.8
O=C1c2c(O)cc(O)cc2-c2c(-c3ccc(O)cc3)oc3cc(O)cc1c23,LCC2 control shRNA,label-free MS proteomics,10 µM,,downregulated protein count,245
COc1ccc(NC(=O)COc2ccc(/C=C/C(C)=N/O)cc2OC)cc1,SH-SY5Y,flow cytometry,"2.5 µM, added: amyloid beta 10 µM",,IL-1β expressing cells,48.2%
C(=C/c1ccccc1)/c1ccccc1,K562,"cell proliferation, CellTiter-Glo","24 h, lowest dose with significant inhibition",baseline: vehicle,lowest effective concentration,2 µM
CC(=C(c1ccc(O)cc1)c1ccc(Cl)cc1)c1ccc(Cl)cc1,CAKI-1,cell growth or viability,,,GI50,1.01 µM
COc1cc(CNC(=O)C[C@H](C)CCC=C(C)C)ccc1OCc1cn(-c2ccc(Cl)c(Cl)c2)nn1,CAKI-1,SRB,"10 µM, 48 h",,growth percent,64%
COc1ccc2c(c1)/C(=N\Nc1nnc3n1N=C(c1ccccc1)CS3)C(=O)N2,UACC-257,"cell growth or viability, SRB",10 µM,,inhibition,35%
O=Cc1c(O)ccc2ccccc12,HUVEC,"RNA sequencing, item: BEX1","75 µM, 24 h",baseline: DMSO,log2 fold change,2.49
COc1cc(CNC(=O)C[C@H](C)CCC=C(C)C)ccc1OCc1cn(-c2ccccc2F)nn1,HOP-92,SRB,"10 µM, 48 h",,growth percent,4.63%
CCCCCCCCCCCCCCCC(=O)N[C@@H](CCCCN)C(=O)N[C@@H](CCCCN)C(=O)N[C@@H](CO)C(=O)N[C@@H](CCCNC(=N)N)C(=O)N[C@@H](C)C(=O)N[C@@H](CC(C)C)C(=O)N[C@@H](Cc1ccccc1)C(N)=O,human gel-filtered platelets,platelet aggregation,"concentration not given, added: ristocetin 1 mg/mL",,inhibition,inactive
COc1cc(CNC(=O)C[C@H](C)CCC=C(C)C)ccc1OCc1cn(-c2cccc(Cl)c2)nn1,SK-OV-3 ovarian cancer cells,SRB,"10 µM, 48 h",,growth percent,75.1%
C=C1[C@H](O)CC(=C/C=C2\CCC[C@]3(C)[C@@H]([C@H](C)CCCC)CC[C@@H]23)C[C@H]1O,rat osteosarcoma cells,"reporter gene, luciferase, item: CYP24A1 (24-hydroxylase) promoter",,"baseline: compound over 1α,25-dihydroxyvitamin D3",EC50 ratio,200
COc1cc(CNC(=O)C[C@H](C)CCC=C(C)C)ccc1OCc1cn(-c2ccccc2Cl)nn1,CAKI-1,SRB,"10 µM, 48 h",,growth percent,46.3%
CC(=O)OC[C@H]1O[C@@H](Sc2sc(C(=O)c3ccc(C)cc3)c(N)c2-c2nc3ccccc3s2)[C@H](OC(C)=O)[C@@H](OC(C)=O)[C@H]1OC(C)=O,SN12C,SRB,"10 µM, 48 h",baseline: untreated,growth,91.4%

# Excerpt of the above:
SMILES,cell line,test,setting,how to read,endpoint,result
COc1ccc(NC(=O)COc2ccc(/C=C/C(C)=N/O)cc2OC)cc1,SH-SY5Y,flow cytometry,"2.5 µM, added: amyloid beta 10 µM",,IL-1β expressing cells,48.2%
